Assay results collected from several papers.
Protocols differ between the studies behind these lines. “And” joins repeats or separate records; there may be more than shown. ± marks the error that the study gave.
P4HB: Protein disulfide-isomerase (P4HB, Homo sapiens, UniProt P07237)
UniProt P07237, sequence (whole entry, looked up): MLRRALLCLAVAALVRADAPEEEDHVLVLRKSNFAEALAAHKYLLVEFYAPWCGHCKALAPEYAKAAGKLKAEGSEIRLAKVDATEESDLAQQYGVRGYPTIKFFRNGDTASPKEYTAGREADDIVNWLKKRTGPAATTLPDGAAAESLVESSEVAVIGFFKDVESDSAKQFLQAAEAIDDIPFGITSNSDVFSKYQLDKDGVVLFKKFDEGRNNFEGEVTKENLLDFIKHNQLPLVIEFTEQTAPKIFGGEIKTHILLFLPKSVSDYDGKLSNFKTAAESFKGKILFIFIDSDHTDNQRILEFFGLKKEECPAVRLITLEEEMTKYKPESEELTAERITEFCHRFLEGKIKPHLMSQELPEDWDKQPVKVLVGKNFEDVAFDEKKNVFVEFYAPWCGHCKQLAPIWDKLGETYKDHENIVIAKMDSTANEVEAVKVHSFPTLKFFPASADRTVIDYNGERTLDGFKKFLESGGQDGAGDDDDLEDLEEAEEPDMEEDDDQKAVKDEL
PTGS1: Prostaglandin G/H synthase 1 (PTGS1, Ovis aries, UniProt P05979)
UniProt P05979, sequence (whole entry, looked up): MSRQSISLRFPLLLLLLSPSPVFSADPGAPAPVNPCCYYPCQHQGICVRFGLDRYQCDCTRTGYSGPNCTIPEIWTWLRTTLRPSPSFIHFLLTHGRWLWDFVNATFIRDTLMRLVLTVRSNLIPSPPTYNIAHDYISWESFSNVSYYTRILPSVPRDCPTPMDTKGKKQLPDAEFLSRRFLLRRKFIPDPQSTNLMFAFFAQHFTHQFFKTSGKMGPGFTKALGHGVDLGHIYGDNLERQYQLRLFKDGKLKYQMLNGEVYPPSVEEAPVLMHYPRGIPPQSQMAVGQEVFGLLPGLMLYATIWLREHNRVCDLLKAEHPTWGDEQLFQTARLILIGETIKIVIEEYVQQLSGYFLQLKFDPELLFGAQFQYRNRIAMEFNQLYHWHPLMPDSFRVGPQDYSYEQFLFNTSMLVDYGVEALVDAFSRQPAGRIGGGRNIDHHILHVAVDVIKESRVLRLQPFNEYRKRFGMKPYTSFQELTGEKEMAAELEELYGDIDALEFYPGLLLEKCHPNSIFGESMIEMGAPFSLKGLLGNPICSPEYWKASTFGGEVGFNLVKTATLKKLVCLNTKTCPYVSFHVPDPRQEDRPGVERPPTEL
CPL: CPL (Toxoplasma gondii, UniProt Q6DMN0)
HDAC3: Histone deacetylase 3 (HDAC3, Homo sapiens, UniProt O15379)
UniProt O15379, sequence (whole entry, looked up): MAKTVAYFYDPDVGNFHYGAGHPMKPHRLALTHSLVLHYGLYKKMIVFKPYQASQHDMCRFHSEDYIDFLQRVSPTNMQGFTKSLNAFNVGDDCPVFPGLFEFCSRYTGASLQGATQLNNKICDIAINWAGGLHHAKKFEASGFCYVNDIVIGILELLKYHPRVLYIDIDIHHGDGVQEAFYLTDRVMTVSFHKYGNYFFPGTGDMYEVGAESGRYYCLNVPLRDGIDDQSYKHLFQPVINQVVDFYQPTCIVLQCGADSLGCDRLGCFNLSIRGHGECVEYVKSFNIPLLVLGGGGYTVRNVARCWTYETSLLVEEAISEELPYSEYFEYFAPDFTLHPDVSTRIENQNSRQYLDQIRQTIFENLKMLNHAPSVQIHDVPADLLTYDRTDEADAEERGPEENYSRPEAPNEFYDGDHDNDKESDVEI
UniProt O00206, sequence (whole entry, looked up): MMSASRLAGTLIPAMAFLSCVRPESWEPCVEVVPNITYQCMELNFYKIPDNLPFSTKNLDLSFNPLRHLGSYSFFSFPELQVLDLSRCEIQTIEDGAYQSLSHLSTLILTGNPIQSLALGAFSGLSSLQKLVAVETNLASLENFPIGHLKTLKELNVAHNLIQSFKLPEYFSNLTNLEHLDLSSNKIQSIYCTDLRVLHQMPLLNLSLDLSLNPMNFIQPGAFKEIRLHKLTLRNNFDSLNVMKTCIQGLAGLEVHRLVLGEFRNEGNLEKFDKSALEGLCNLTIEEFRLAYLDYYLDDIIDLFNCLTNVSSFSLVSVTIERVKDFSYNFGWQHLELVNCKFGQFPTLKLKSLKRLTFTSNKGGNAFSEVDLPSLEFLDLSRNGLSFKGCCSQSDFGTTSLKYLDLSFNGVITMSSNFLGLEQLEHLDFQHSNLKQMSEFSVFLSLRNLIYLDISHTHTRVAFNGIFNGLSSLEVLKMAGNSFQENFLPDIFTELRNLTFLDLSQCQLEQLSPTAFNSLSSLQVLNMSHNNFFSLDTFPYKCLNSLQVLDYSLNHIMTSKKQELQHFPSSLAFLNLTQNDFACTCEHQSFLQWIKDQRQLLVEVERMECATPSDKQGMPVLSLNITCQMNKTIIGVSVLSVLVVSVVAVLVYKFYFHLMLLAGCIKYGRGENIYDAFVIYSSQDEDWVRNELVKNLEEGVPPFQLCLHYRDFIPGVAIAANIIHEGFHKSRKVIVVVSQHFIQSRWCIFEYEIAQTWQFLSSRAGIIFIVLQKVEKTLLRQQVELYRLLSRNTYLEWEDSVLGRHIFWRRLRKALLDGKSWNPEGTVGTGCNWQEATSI
UniProt Q9UBN7, sequence (whole entry, looked up): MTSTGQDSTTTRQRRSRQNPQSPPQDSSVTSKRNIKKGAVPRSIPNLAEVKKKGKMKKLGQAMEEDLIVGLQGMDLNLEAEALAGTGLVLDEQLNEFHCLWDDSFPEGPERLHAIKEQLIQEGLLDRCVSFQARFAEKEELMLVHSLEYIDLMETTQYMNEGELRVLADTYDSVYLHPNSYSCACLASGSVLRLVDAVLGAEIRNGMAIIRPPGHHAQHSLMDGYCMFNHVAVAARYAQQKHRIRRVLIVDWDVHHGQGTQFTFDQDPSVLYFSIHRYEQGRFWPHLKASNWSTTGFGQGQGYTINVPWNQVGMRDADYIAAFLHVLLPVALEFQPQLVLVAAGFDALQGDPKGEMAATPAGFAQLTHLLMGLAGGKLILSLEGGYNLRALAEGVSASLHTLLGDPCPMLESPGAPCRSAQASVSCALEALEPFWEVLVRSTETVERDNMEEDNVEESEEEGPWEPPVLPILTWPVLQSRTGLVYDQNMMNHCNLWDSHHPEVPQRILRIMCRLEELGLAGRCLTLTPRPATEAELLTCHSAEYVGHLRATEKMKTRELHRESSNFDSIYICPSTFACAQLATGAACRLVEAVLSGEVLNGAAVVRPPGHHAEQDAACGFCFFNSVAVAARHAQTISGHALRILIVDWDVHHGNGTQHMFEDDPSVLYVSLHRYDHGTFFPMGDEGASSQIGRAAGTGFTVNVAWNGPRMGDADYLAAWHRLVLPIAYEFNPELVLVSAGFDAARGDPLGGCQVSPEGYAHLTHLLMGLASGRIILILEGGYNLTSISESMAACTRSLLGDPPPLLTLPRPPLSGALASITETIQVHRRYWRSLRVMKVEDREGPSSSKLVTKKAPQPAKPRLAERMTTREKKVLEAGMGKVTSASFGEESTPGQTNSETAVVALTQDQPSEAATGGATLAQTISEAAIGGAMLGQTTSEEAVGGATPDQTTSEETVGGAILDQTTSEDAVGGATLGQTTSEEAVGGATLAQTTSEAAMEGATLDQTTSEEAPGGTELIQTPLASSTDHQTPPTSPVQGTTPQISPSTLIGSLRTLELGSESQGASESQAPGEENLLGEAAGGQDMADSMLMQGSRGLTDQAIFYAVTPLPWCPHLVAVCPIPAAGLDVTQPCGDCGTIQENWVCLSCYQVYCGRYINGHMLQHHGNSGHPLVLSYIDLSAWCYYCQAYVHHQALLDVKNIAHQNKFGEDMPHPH
UniProt O00748, sequence (whole entry, looked up): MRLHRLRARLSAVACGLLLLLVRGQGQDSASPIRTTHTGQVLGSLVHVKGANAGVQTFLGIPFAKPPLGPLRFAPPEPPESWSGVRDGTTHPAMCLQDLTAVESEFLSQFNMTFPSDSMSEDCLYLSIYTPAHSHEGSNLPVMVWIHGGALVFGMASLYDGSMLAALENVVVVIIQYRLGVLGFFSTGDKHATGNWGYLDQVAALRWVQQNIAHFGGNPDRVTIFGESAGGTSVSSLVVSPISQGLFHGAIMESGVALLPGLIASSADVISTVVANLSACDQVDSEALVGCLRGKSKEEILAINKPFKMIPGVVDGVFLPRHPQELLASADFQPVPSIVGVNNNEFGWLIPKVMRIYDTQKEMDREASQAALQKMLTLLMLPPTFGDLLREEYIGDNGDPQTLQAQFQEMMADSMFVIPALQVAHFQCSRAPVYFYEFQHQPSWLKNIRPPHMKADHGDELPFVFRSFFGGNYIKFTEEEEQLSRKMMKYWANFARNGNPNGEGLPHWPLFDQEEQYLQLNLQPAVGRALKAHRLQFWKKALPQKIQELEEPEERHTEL
UniProt P05106, sequence (whole entry, looked up): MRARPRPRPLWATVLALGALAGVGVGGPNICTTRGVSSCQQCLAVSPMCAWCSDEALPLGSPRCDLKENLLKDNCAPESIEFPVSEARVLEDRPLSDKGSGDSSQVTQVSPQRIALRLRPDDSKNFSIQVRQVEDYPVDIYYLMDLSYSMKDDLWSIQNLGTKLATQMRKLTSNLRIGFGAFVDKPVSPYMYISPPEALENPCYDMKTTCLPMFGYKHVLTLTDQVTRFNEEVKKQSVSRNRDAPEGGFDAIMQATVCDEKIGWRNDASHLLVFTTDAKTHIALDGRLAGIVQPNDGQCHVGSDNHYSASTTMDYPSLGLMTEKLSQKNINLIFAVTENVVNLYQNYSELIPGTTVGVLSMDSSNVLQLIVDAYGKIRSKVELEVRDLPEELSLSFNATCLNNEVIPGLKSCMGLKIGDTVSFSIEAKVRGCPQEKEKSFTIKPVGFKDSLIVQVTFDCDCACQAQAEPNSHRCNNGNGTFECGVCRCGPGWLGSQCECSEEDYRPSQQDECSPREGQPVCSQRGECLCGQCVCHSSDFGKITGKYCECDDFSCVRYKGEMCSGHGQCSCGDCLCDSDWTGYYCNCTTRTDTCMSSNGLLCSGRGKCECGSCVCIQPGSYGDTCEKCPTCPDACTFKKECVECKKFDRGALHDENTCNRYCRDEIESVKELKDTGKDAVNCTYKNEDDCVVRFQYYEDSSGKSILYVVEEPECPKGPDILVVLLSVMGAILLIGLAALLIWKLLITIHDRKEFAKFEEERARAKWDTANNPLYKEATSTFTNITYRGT

N=C(N)NCCC[C@@H](NC(=O)[C@@H](CCCNC(=N)N)NC(=O)[C@@H](CCCNC(=N)N)NC(=O)[C@@H](CCCNC(=N)N)NC(=O)[C@@H](CCCNC(=N)N)NC(=O)[C@@H](CCCNC(=N)N)NC(=O)CCCCCNC(=O)[C@H]1O[C@@H](n2cnc3c(N)ncnc32)[C@H](O)[C@@H]1O)C(N)=O — IC50 (cGMP-dependent protein kinase 1, isoform alpha (PRKG1, Homo sapiens, UniProt Q13976)): 0.2 µM
CC[C@H](C)[C@@H]1NC(=O)[C@H](C(C)C)NC(=O)[C@H](C(C)C)NC(=O)[C@H](CC(C)C)NC(=O)C[C@@H](C(=O)N[C@@H](Cc2c[nH]c3ccccc23)C(=O)N[C@@H](CC(N)=O)C(=O)N[C@@H](C)C(=O)N2CCC[C@H]2C(=O)NCC(=O)N[C@@H](Cc2c[nH]c3ccccc23)C(=O)N[C@@H](Cc2ccc(O)cc2)C(=O)O)NC(=O)[C@H](C)NC(=O)[C@H](CCC(N)=O)NC(=O)[C@H](C(C)C)NC1=O — IC50 (TLR4 (Homo sapiens, UniProt O00206); LPS binding, antagonist, ELISA): 0.273 ± 0.022 µM
N=C(N)NCCC[C@H](N)C(=O)NCC(=O)NCC(=O)N[C@@H](Cc1ccccc1)C(=O)O — IC50 (Integrin alpha-IIb/beta-3, ADP-activated (Homo sapiens, UniProt P05106+P08514); fibrinogen binding, inhibitor; human platelets): > 1000 µM
CC(=O)N[C@@H](CCCNC(=N)N)C(=O)N[C@@H](Cc1ccc(O)cc1)C(=O)N[C@@H](CCCNC(=N)NC(=O)NCCCCN)C(=O)N[C@@H](CC(C)C)C(=O)N[C@H](CCCNC(=N)N)C(=O)N[C@@H](Cc1ccc(O)cc1)C(N)=O — IC50 (NPY4R (Homo sapiens, UniProt P50391); calcium signal, antagonist): 8.34 µM
O=C(Nc1ccc(Br)cc1)c1cc(Br)cc(Br)c1O — IC50 (Semaphorin-3C, with neuropilin-1 (SEMA3C, Homo sapiens, UniProt Q99985); SEMA3C binding, inhibitor, displacement; together with: SEMA3C-AP): 2.98 µM
C=C(C)[C@]12C[C@@H](C)[C@@]34O[C@](Cc5ccccc5)(O[C@@H]1[C@@H]3C=C(COC(=O)Cc1cc(I)c(O)c(OC)c1)C[C@]1(O)C(=O)C(C)=C[C@@H]41)O2 — IC50 (Trpv1 (Rattus norvegicus, UniProt O35433); calcium signal, antagonist, fluorescence): 0.2 µM
CN[C@@H]1[C@H](O)[C@H](NC)[C@H]2O[C@]3(O)[C@H](O[C@@H]2[C@H]1O)O[C@H](C)C[C@]3(O)CNCc1ccc(F)cc1 — IC50 (Small ribosomal subunit protein uS5, 70S ribosome (rpsE, Mycolicibacterium smegmatis, UniProt A0QSG6); translation, inhibitor, in vitro translation, luciferase; Mycobacterium smegmatis ribosomes): 16.6 µg/mL
CC[C@@H]1C(=O)N(C)c2cnc(Nc3ccc(C(=O)NCCCC[C@H](NC(=O)[C@@H](NC(=O)[C@H](CO)NC(=O)[C@H](Cc4cncn4CCCCCCCCc4ccccc4)NC(=O)[C@H](CC(C)C)NC(=O)[C@@H]4CCCN4C(C)=O)[C@@H](C)OP(=O)(O)O)C(N)=O)cc3OC)nc2N1C1CCCC1 — IC50 (ALK (Homo sapiens, UniProt Q9UM73, C1156Y); enzyme activity, inhibitor): 8.1 µM
COC(=O)C1CN1S(=O)(=O)c1ccc([N+](=O)[O-])cc1 (stereo not shown) — IC50 (P4HB; enzyme activity, inhibitor, absorbance; pH 7.6): 41 µM
CC(C)[C@H]1NC(=O)[C@H](CO)NC(=O)c2cc3cc(c2)C(=O)NC[C@H](NC(=O)[C@H](Cc2c[nH]cn2)NC(=O)[C@H](Cc2ccc(C(F)(F)P(=O)(O)O)cc2)NC(=O)[C@@H]2CCCN2C1=O)C(=O)N[C@@H](Cc1ccccc1)C(=O)N[C@@H](Cc1ccc2ccccc2c1)C(=O)N[C@@H](CCCNC(=N)N)C(=O)N[C@@H](CCCNC(=N)N)C(=O)N[C@@H](CCCNC(=N)N)C(=O)N[C@@H](CCCNC(=N)N)C(=O)N[C@H](C(=O)N[C@@H](CCCCN)C(N)=O)CNC3=O — IC50 (PTPN2 (Homo sapiens, UniProt P17706); enzyme activity, inhibitor, absorbance): 0.5 µM
CC(=O)Nc1ccc(S(=O)(=O)N2CCN(c3nc4ccc(Cl)cc4o3)CC[C@H]2C)cc1 — IC50 (HCRTR2 (Homo sapiens, UniProt O43614); calcium signal, antagonist, fluorescence): 2.05 µM
Nc1nc2nc3nc(N)sc3cc2s1 — IC50 (Papain (Carica papaya, UniProt P00784); enzyme activity, inhibitor): 18 µM
Cc1ccc(C(=O)/C=C/c2ccc(N(C)CCO)cc2)o1 — IC50 (PTGS1; enzyme activity, inhibitor, ELISA): < 25 µM and 25.9 µM
Cc1ccc(S(=O)(=O)N2CC2C(N)=O)cc1 (stereo not shown) — IC50 (P4HB; enzyme activity, inhibitor, absorbance; pH 7.6): 227 µM
CC(C)CCN(c1nc(C#N)nc(N2CCOCC2)n1)C(C)c1ccc(F)cc1 (stereo not shown) — IC50 (CPL; enzyme activity, inhibitor, Z-L-R-AMC hydrolysis fluorescence): 0.026 µM
CCCCCCCCCC1N=C(N)N=C(N)N1c1ccccc1C (racemic) — IC50 (folA (Escherichia coli, UniProt P0ABQ4); enzyme activity, inhibitor): 7 µM
O=C(CCCCCCC(=O)Nc1cccc(N=Nc2ccccc2)c1)NO — IC50 (HDAC3; enzyme activity, inhibitor; cis isomer, irradiated): 0.022 ± 0.007 µM
Cc1[nH]c2ccccc2c1C(c1ccccc1)C(C#N)C#N (stereo not shown) — IC50 (Cocaine esterase (CES2, Homo sapiens, UniProt O00748); enzyme activity, inhibitor; human liver microsomes; pH 7.4, 37 °C, together with: fluorescein diacetate): 2.98 ± 0.53 µM
CC[C@H](C)[C@@H]1NC(=O)[C@H](CC(C)C)NC(=O)[C@@](C)(NC(=O)[C@H](Cc2ccccc2)NC(=O)[C@H](Cc2ccc(O)cc2)NC(=O)[C@H](C)NC(=O)[C@@H](N)[C@@H](C)O)CCCC=CCCC[C@@](C)(C(=O)NCC(=O)N[C@@H](CCCNC(=N)N)C(=O)N[C@@H](Cc2c[nH]c3ccccc23)C(N)=O)NC(=O)[C@H](CC(C)C)NC1=O — IC50 (Gag-Pol polyprotein, integrase (gag-pol, Human immunodeficiency virus type 1 group M subtype B, UniProt P04585); integrase 3'-processing, inhibitor): 22 ± 3 µM
Cc1cccc2c1NC(=O)C2=Cc1ccc(-c2cccc(C(=O)N3CCCN(C)CC3)c2)o1 (mixture of isomers) — IC50 (PIM2 (Homo sapiens, UniProt Q9P1W9); enzyme activity, inhibitor): 5 µM
CCCC[C@@H]1NC(=O)[C@H](Cc2ccccc2)NC(=O)CNC(=O)[C@H](NC(=O)[C@@H](N)Cc2ccc(O)cc2)C(C)(C)SSC(C)(C)[C@H](C(=O)N[C@@H](Cc2c[nH]c3ccccc23)C(=O)NCc2cc(C(F)(F)F)cc(C(F)(F)F)c2)NC(=O)[C@@H]2CCCN2C1=O — IC50 (OPRD1 (Homo sapiens, UniProt P41143); ligand displacement, radioligand; cell membranes): 1.38 µM
CC(C)CCCN(Cc1ccc(F)cc1)c1nc(C#N)nc(N2CCOCC2)n1 — IC50 (CPL; enzyme activity, inhibitor, Z-L-R-AMC hydrolysis fluorescence): 0.22 µM
C=C(NC(=O)C(=C)NC(=O)c1csc(C2=NC3c4csc(n4)C4NC(=O)c5csc(n5)C(C(C)(O)C(C)O)NC(=O)C5CSC(=N5)C(=CC)NC(=O)C(C(C)O)NC(=O)c5csc(n5)C3(CC2)NC(=O)C(C)NC(=O)C(=C)NC(=O)C(C(C)C)NC2C=Cc3c(C(C)O)cc(nc3C2O)C(=O)OC4C)n1)C(N)=O (stereo not shown) — IC50 (PSMB6 (Homo sapiens, UniProt P28072); caspase-like activity, inhibitor; purified human 20S proteasome; 37 °C, 15 min preincubation, together with: Ac-Nle-Pro-Nle-Asp-AMC): 1.2 ± 0.04 µM
CC(C)C[C@@H]1NC(=O)[C@H](CCCCN)NC(=O)[C@H](CC(C)C)NC(=O)[C@@](C)(NC(=O)[C@H](Cc2ccccc2)NC(=O)[C@H](Cc2ccc(O)cc2)NC(=O)[C@H](C)NC(=O)[C@@H](NC(=O)c2ccc3c(c2)C(=O)OC32c3ccc(O)cc3Oc3cc(O)ccc32)[C@@H](C)O)CCCC=CCCC[C@@](C)(C(=O)NCC(=O)N[C@@H](CCCNC(=N)N)C(=O)N[C@@H](Cc2c[nH]c3ccccc23)C(N)=O)NC1=O — IC50 (PC4 and SFRS1-interacting protein, with HIV integrase (Homo sapiens, UniProt O75475); LEDGF/p75-integrase interaction, inhibitor): 25 µM
C/C=C1/CN2CCc3c([nH]c4ccccc34)[C@@H]2C[C@@H]1/C(=C\OC)C(=O)OC — IC50 (HTR6 (Homo sapiens, UniProt P50406); ligand displacement, radioligand; cell membranes): 12.2 µM
CN[C@H](CC(C)C)C(=O)N[C@H]1C(=O)N[C@@H](CC(N)=O)C(=O)N[C@H]2C(=O)N[C@H]3C(=O)N[C@H](C(=O)N[C@H](C(=O)O)c4cc(O)cc(O)c4-c4cc3ccc4O)[C@H](O)c3ccc(c(Cl)c3)Oc3cc2cc(c3O[C@@H]2O[C@H](CO)[C@@H](O)[C@H](O)[C@H]2O[C@H]2C[C@](C)(NCc3ccc(C(=O)OCCCCCCN(Cc4ccccn4)Cc4ccccn4)cc3)[C@H](O)[C@H](C)O2)Oc2ccc(cc2Cl)[C@H]1O — IC50 (Beta-lactamase L1 (Stenotrophomonas maltophilia, UniProt P52700); enzyme activity, inhibitor, absorbance): 11 µM
O=C(O)c1ccccc1Nc1ccc(Oc2ccc([N+](=O)[O-])cc2)cc1 — IC50 (Androgen receptor (AR, Homo sapiens, UniProt P10275); reporter gene, antagonist, MMTV-Luc reporter; MDA-kb2; 20 h, together with: 0.2 nM DHT (EC50)): 1.9 ± 0.9 µM
Cc1ccc(NC(=O)N2CCN(c3cccc(C(F)(F)F)c3)CC2)cc1 — IC50 (CatSper channel complex (Homo sapiens, UniProt Q7RTX7+Q86XQ3+Q8NEC5+Q96P56); calcium influx, inhibitor, FLIPR; human sperm; together with: 3 µM progesterone): > 100 µM
N#Cc1nc(N2CCOCC2)nc(N(Cc2ccc(F)cc2)CC2CCCOC2)n1 (stereo not shown) — IC50 (CPL; enzyme activity, inhibitor, Z-L-R-AMC hydrolysis fluorescence): 0.049 µM
O=C(N[C@@H](CC1CCCCC1)C(=O)N[C@@H](C[C@H]1CCNC1=O)C(=O)C(=O)NC1CC1)OCc1cccc(Cl)c1 — IC50 (Genome polyprotein, 3C protease (Human enterovirus D68, UniProt Q68T42); 3C protease activity, inhibitor, FRET): 0.022 ± 0.05 µM
O=C(O)c1cc2ccccc2n1Cc1ccccc1 — IC50 (TDO2 (Homo sapiens, UniProt P48775); inhibitor; together with: L-tryptophan 400 µM): > 500 µM
COc1cc(OC)c(C(=O)/C=C/c2ccc(N(C)CCO)cc2)c(OC)c1 — IC50 (PTGS1; enzyme activity, inhibitor, ELISA): 48.2 µM
O=C1c2ccccc2[Se](=O)N1c1ccccc1 (stereo not shown) — IC50 (HDAC6 (Homo sapiens, UniProt Q9UBN7); enzyme activity, inhibitor, fluorescence): 2.98 µM
O=C(CCCCCCC(=O)Nc1ccccc1N=Nc1ccccc1)NO — IC50 (HDAC3; enzyme activity, inhibitor; trans isomer): 0.008 ± 0.002 µM
N#CC1=C(N)n2c(nnc2-c2ccccc2)NC1c1ccc(Br)cc1 (stereo not shown) — IC50 (PTGS2 (Homo sapiens, UniProt P35354); enzyme activity, inhibitor): 15.2 µM
CC(C)[C@@H]1NC(=O)[C@]2(C)CSC(=N2)c2cccc(n2)CNC(=O)C[C@@H](/C=C/CCS)OC1=O — IC50 (Histone deacetylase 3, with NCoR2 (HDAC3, Homo sapiens, UniProt O15379); inhibitor): 0.0179 µM
CC(C)C[C@@H]1NC(=O)[C@H](C(C)C)NC(=O)[C@H](C)NC(=O)[C@H](Cc2ccc(O)cc2)NC(=O)[C@H](CCC(N)=O)NC(=O)[C@H](CC(C)C)NC(=O)[C@@H](Cc2ccc(O)cc2)NC(=O)CSC[C@@H](C(N)=O)NC(=O)[C@H](CCC(=O)O)NC(=O)[C@H](CCCNC(=N)N)NC(=O)[C@H](CCCNC(=N)N)NC(=O)[C@H](CCCCN)NC(=O)[C@H](Cc2c[nH]cn2)NC(=O)[C@H](CCCNC(=N)N)NC1=O — IC50 (Cathepsin E (CTSE, Homo sapiens, UniProt P14091); enzyme activity, inhibitor): > 10 µM
CC(C)C[C@@H]1NC(=O)[C@H](CCCNC(=N)N)NC(=O)[C@H](CCCCN)NC(=O)[C@H](C)NC(=O)[C@H](CCCCN)NC(=O)[C@@H](CO)NC1=O — IC50 (Disintegrin and metalloproteinase domain-containing protein 8 (Homo sapiens, UniProt P78325); enzyme activity, inhibitor, fluorescence): > 5 µM
CC[C@H](C)[C@H](NC(=O)[C@H](Cc1ccccc1)NC(=O)[C@H](CCN)NC(=O)[C@H](CCCNC(=N)N)NC(=O)[C@H](Cc1ccccc1)NC(=O)[C@H](Cc1ccccc1)NC(=O)[C@H](CCCN)NC(=O)[C@H](CO)NC(=O)[C@H](CC(C)C)NC(=O)[C@H](CCCNC(=N)N)NC(=O)[C@H](CCSC)NC(=O)[C@H](C)N)C(=O)N[C@@H](CC(C)C)C(=O)N[C@@H](CCC(N)=O)C(=O)N[C@@H](CCCNC(=N)N)C(=O)N[C@@H](CCCCN)C(=O)N[C@@H](CCCCN)C(=O)O — IC50 (histidine kinase ComD (Streptococcus pneumoniae serotype 4, UniProt A0A0H2US84); Streptococcus pneumoniae cells, Streptococcus pneumoniae): > 1 µM
CC(C)[C@H](NC(=O)[C@H](CC(N)=O)NC(=O)[C@H](Cc1ccc(O)cc1)NC(=O)[C@@H](N)CCCCN)C(=O)N[C@H]1CSC(=O)[C@H](Cc2ccccc2)NC(=O)[C@H](Cc2ccc(O)cc2)NC(=O)[C@H](CC(N)=O)NC(=O)[C@H](CO)NC1=O — IC50 (Accessory gene regulator protein C (Staphylococcus epidermidis, UniProt O86861)): 0.00215 µM
